Measured values from different studies.
Parts stem from different laboratories: compare values within a part only. Substitutions count along the parent as printed.

Set 1
Target: CCNE2, cyclin fold, Cln2 fusion (human)
Method: yeast growth competition, sequencing
Sample: yeast
Setting: strong parent motif
Baseline: not given
Direction: higher = stronger binding
Quantity: normalised enrichment score
Parent: viral docking peptide; TSVRRALFTGGSD; partner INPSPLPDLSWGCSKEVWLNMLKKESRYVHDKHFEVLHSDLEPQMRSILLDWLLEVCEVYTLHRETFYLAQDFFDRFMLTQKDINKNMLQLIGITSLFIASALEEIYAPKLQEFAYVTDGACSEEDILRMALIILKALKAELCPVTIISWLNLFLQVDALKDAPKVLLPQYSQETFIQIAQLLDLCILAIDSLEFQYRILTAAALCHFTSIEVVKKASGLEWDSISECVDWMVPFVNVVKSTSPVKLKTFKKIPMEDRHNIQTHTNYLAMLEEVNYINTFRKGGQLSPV
Variant = S12Y; value = 4.06
Variant = R4C; value = 3.41
Variant = L7M; value = 0.295
Variant = S2L; value = 2.13
Variant = F8Q; value = -0.0201
Variant = R5Q; value = 0.275
Variant = G10Y; value = 3.03
Variant = V3K; value = 0.633
Variant = R4V; value = 3.45
Variant = V3T; value = 0.95
Variant = S2A; value = 2.58
Variant = A6M; value = 2.71
Variant = G11M; value = 3.7
Variant = L7H; value = 0.559
Variant = S12E; value = 4.45
Variant = S2V; value = 1.64
Variant = R4K; value = 3.54
Variant = S12A; value = 3.78
Variant = F8S; value = 0.109
Variant = T9A; value = 2.72
Variant = R4M; value = 0.866

Set 2
Target: PABPC1L2, full length, GST fusion (mouse, UniProt A0ABA7IW68)
Method: RNAcompete
Molecule type: RNA
Sample: in vitro
Concentration: 20 nM
Setting: 7-mer, probes averaged, single round
Baseline: mean of 7-mers
Direction: higher = stronger binding
Quantity: 7-mer Z-score
Residues (chain): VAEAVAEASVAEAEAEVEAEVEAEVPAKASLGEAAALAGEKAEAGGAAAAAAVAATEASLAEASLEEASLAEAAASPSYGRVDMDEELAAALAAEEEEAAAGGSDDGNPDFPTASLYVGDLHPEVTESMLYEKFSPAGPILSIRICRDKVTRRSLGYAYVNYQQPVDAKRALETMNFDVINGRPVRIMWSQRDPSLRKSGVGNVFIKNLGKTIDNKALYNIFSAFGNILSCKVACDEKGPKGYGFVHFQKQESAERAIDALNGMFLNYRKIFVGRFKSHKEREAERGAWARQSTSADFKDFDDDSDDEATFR
Sequence = AACUGAA; value = 0.234
Sequence = CUCUUGU; value = -0.499
Sequence = CCUCGUC; value = -0.483
Sequence = GCAAGGU; value = -0.0428
Sequence = CAAGACA; value = 0.129
Sequence = CAACGUA; value = 0.0334
Sequence = GGCAGGG; value = 0.184
Sequence = GCUGAGC; value = 0.0732

Set 3
Target: Prothrombin, mature alpha-thrombin (F2, Homo sapiens, UniProt P00734)
Method: aptamer microarray, sandwich
Molecule type: DNA with 2'F-ANA
Sample: in vitro
Concentration: 200 nM
Setting: whole 15-mer aptamer, many near background
Together with: Cy3 exosite-II aptamer, 400 nM
Direction: higher = stronger binding
Quantity: mean fluorescence intensity
Sequence: GGTTGGTGTGGTTGG
Modification = 2'F-ANA at 3 5 11 13 14; value = 56.4 a.u.
Modification = 2'F-ANA at 1 3 7 9 11 14; value = 84.5 a.u.
Modification = 2'F-ANA at 1 4 6 7 13 14 15; value = 94.2 a.u.
Modification = 2'F-ANA at 2 9 11 12 13; value = 523 a.u.
Modification = 2'F-ANA at 3 6 7 9 10 11 14; value = 378 a.u.
Modification = 2'F-ANA at 3 5 9 10 13; value = 64.6 a.u.
Modification = 2'F-ANA at 4 5 7 8 9 14; value = 45.4 a.u.
Modification = 2'F-ANA at 1 2 3 4 6 8 9 11 12 15; value = 253 a.u.

Set 4
Target: UDP-N-acetylglucosamine--peptide N-acetylglucosaminyltransferase 110 kDa subunit (OGT, Homo sapiens, UniProt O15294)
Sequence of UniProt O15294 (whole entry, looked up): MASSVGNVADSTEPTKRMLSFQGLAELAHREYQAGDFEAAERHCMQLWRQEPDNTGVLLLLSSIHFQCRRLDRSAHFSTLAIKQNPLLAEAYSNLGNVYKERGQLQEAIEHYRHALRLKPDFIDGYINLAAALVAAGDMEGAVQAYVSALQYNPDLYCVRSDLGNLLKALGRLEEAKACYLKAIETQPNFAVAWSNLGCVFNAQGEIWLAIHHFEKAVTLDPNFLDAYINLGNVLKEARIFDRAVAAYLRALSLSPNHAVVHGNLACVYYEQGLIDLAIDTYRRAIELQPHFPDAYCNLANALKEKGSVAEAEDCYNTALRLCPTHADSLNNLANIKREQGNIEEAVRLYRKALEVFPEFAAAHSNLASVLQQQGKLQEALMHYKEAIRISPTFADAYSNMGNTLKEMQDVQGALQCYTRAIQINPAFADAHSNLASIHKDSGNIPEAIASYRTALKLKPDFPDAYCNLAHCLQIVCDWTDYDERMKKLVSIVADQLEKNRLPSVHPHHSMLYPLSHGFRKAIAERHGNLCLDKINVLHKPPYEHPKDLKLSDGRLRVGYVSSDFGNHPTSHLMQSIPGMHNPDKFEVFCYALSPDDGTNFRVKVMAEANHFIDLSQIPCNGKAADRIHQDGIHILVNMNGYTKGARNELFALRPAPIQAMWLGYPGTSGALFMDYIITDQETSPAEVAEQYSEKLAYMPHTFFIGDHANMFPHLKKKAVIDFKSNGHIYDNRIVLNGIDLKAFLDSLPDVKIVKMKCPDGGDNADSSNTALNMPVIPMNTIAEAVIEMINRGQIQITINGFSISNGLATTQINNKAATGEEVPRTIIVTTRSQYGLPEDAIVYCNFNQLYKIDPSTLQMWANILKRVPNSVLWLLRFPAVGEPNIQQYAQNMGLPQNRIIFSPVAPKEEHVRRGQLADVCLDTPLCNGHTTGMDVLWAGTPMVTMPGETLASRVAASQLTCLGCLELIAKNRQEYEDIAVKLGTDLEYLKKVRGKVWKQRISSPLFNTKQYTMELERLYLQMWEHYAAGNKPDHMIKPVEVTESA
Read-out: binding
Method: phage display NGS
Molecule type: peptide
Concentration: concentration not given
Baseline: input library
Quantity: enrichment fold change
Sequence = QDTTFAPFYQIIAPP; value = 3.09
Sequence = NVAQTHMHHHLLHEV; value = 9.1
Sequence = YAPQYQILFNYNIKL; value = 15.6
Sequence = HLPSHYEAKPTKHHR; value = 9.36
Sequence = HGQQMKNPHHHHPMW; value = 13.2
Sequence = TVVMTLPHHHHGRGD; value = 5.65

For quick reference, copied from above (set 3):
Modification = 2'F-ANA at 1 3 7 9 11 14; value = 84.5 a.u.
Modification = 2'F-ANA at 1 4 6 7 13 14 15; value = 94.2 a.u.
Modification = 2'F-ANA at 2 9 11 12 13; value = 523 a.u.
Modification = 2'F-ANA at 3 6 7 9 10 11 14; value = 378 a.u.
Modification = 2'F-ANA at 3 5 9 10 13; value = 64.6 a.u.
